# Published values from different studies.
# Parts stem from different laboratories: compare values within a part only.
# UniProt Q13554, sequence (whole entry, looked up): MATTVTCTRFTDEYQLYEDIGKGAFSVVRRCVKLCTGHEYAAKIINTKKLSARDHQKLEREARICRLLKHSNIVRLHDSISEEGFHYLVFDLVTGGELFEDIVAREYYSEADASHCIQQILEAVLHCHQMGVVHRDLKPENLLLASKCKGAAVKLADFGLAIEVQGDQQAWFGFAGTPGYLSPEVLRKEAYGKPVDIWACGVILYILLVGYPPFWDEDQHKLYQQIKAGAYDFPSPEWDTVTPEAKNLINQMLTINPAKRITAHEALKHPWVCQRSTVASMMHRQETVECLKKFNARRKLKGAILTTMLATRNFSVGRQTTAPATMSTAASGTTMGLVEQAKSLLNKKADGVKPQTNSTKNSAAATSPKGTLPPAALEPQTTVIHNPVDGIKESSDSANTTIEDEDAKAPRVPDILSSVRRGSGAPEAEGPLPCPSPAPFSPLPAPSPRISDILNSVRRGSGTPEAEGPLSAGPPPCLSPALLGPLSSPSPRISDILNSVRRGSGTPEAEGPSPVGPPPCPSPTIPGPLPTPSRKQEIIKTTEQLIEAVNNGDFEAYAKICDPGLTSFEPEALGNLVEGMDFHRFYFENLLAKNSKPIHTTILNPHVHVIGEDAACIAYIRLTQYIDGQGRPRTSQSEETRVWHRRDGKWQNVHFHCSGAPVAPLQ
# UniProt Q9UK32, sequence (whole entry, looked up): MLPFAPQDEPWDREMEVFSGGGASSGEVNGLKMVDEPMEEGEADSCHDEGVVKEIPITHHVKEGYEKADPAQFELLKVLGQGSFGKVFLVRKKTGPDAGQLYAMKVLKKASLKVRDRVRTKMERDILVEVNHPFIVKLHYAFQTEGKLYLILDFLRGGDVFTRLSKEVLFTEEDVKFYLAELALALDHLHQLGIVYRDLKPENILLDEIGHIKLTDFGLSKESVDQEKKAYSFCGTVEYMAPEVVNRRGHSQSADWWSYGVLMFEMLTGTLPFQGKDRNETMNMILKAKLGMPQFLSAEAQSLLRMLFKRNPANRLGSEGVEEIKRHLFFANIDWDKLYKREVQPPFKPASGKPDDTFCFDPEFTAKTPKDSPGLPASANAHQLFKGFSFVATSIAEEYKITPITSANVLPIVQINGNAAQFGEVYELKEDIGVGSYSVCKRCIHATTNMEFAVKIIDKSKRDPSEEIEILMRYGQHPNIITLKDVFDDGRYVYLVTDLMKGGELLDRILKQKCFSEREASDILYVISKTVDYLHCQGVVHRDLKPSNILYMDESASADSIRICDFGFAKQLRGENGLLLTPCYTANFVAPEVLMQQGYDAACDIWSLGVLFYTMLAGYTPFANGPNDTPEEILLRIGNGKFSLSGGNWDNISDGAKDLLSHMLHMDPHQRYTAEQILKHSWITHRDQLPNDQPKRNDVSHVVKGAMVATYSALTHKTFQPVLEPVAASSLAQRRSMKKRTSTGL
# UniProt P06493, sequence (whole entry, looked up): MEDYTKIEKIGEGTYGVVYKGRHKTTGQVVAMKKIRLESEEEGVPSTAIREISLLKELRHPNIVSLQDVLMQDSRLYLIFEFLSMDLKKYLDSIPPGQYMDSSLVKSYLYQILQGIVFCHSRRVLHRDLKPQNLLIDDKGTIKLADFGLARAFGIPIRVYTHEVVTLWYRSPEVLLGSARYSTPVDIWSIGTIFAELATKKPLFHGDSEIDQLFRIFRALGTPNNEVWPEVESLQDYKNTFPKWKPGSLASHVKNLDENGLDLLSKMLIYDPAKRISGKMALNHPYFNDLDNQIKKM
# UniProt P19525, sequence (whole entry, looked up): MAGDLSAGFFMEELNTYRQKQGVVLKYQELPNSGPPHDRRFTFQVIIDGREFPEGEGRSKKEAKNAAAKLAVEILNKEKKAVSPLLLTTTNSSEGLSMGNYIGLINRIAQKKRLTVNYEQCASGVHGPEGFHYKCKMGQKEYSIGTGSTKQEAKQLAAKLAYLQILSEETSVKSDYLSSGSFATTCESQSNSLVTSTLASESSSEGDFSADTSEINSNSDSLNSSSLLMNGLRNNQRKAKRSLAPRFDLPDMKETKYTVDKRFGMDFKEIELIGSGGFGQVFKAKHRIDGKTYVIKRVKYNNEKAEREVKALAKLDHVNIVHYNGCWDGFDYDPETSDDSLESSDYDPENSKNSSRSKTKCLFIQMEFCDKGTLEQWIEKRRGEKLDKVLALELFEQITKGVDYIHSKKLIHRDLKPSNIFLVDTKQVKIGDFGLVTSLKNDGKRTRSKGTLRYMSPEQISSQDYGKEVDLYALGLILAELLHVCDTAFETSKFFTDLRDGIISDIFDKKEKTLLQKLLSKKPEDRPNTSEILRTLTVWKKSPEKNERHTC
# UniProt Q9BXA7, sequence (whole entry, looked up): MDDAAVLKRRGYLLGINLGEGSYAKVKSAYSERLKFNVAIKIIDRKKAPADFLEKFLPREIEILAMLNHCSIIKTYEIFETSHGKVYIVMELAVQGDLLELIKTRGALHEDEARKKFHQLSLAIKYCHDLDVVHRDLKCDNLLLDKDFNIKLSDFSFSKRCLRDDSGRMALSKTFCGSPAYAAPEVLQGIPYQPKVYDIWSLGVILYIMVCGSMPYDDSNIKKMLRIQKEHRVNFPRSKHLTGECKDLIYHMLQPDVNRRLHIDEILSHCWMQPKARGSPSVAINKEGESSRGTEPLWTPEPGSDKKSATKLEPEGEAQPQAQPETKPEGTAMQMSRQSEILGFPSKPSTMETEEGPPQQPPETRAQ
# UniProt P57059, sequence (whole entry, looked up): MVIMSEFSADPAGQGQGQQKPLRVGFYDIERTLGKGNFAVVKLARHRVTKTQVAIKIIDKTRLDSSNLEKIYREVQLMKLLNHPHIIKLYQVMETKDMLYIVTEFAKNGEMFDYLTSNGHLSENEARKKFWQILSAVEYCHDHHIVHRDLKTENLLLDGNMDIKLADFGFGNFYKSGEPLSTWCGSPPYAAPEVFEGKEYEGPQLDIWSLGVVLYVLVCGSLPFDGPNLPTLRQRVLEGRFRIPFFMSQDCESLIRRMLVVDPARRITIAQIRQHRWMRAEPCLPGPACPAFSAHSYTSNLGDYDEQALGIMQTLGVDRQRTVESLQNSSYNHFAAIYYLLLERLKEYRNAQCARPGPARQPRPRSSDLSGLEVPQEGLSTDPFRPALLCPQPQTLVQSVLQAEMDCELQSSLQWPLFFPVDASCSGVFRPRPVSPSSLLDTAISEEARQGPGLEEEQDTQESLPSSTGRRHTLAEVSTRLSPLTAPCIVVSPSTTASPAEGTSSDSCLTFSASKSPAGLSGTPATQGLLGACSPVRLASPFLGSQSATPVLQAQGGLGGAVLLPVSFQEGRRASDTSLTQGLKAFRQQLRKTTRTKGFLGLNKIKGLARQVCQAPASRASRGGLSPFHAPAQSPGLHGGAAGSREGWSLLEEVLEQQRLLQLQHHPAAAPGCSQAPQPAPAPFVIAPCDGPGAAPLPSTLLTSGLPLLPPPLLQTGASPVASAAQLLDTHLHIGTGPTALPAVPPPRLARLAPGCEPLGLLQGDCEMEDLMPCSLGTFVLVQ
# UniProt P51955, sequence (whole entry, looked up): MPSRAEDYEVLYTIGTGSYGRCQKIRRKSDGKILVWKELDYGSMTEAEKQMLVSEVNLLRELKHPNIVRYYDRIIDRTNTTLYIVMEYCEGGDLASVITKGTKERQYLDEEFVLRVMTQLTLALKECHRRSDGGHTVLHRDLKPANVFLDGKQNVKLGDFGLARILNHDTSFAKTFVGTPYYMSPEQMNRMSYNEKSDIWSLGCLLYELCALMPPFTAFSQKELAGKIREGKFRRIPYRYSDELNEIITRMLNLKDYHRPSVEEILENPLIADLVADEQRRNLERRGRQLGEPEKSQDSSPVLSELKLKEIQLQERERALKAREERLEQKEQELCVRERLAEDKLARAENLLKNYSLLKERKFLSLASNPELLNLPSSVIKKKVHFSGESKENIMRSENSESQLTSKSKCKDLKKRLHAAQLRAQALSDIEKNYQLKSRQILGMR
# UniProt P10721, sequence (whole entry, unmodified, looked up): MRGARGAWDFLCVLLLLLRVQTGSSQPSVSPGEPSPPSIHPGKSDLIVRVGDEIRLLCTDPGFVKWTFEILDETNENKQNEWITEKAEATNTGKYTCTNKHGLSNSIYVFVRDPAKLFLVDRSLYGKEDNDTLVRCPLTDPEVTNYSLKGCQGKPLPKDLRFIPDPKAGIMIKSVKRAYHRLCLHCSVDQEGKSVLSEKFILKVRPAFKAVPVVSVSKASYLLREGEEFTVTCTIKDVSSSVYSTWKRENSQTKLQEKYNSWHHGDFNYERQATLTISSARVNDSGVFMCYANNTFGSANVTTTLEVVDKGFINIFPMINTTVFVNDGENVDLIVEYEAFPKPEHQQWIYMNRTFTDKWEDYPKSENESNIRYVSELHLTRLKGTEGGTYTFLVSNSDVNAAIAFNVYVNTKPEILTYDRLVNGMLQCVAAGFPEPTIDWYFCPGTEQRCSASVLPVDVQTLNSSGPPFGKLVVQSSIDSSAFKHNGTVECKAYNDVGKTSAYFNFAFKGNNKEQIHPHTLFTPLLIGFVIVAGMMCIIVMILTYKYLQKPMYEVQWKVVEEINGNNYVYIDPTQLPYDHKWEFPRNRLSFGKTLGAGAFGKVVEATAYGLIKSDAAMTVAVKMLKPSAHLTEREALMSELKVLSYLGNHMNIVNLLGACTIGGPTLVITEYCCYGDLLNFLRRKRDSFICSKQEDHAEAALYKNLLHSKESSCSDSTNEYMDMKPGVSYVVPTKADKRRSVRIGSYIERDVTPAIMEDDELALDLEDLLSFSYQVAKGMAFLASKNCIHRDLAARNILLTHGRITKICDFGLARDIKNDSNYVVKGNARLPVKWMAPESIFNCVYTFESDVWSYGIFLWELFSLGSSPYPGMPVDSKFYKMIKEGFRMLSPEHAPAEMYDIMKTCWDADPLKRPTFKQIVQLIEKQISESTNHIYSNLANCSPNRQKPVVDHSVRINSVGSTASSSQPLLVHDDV

# Set 1 — Compound: CC(C)CN(C)c1nc(N)c(C(=O)N=C(N)N)nc1Cl; mode: agonist; concentration: 10 µM; baseline: untreated
target,assay,fold over basal
"P2Y purinoceptor 6 (P2RY6, Homo sapiens, UniProt Q15077)","β-arrestin recruitment, PRESTO-Tango",1.63
"MC4R (Homo sapiens, UniProt P32245)","β-arrestin recruitment, PRESTO-Tango",1.72
"GPR4 (Homo sapiens, UniProt P46093)","β-arrestin recruitment, PRESTO-Tango",1.16
"Adhesion G protein-coupled receptor A2 (ADGRA2, Homo sapiens, UniProt Q96PE1)","β-arrestin recruitment, PRESTO-Tango",0.85
"Nociceptin receptor (OPRL1, Homo sapiens, UniProt P41146)",PRESTO-Tango arrestin recruitment,2.87
"ADGRG2 (Homo sapiens, UniProt Q8IZP9)","β-arrestin recruitment, PRESTO-Tango",0.94
"Mas-related G-protein coupled receptor member X3 (Homo sapiens, UniProt Q96LB0)","β-arrestin recruitment, PRESTO-Tango",1.86
"Putative adhesion G protein-coupled receptor F2P (ADGRF2P, Homo sapiens, UniProt Q8IZF7)","β-arrestin recruitment, PRESTO-Tango",0.64
"ADRA1A (Homo sapiens, UniProt P35348)","β-arrestin recruitment, PRESTO-Tango",0.94
"G-protein coupled receptor 78 (GPR78, Homo sapiens, UniProt Q96P69)","β-arrestin recruitment, PRESTO-Tango",0.78
"Secretin receptor (SCTR, Homo sapiens, UniProt P47872)","β-arrestin recruitment, PRESTO-Tango",1.08

# Set 2 — concentration: 1 µM
# SMILES: O=C(N1CCS(=O)(=O)CC1)N1C[C@H](c2ccc(OC(F)(F)F)cc2)C[C@H](c2nc(C3CC3)no2)C1
target,assay,remaining binding
"EGFR (Homo sapiens, UniProt P00533, del747-750/T751S)","cell-free assay, competition with immobilised ligand",77%
"MARK2 (Homo sapiens, UniProt Q7KZI7)","cell-free assay, competition with immobilised ligand",100%
"SIK1 (Homo sapiens, UniProt P57059)",competition binding,99%
"BMPR1B (Homo sapiens, UniProt O00238)","cell-free assay, competition with immobilised ligand",82%
"ULK2 (Homo sapiens, UniProt Q8IYT8)","cell-free assay, competition with immobilised ligand",75%
"Ribosomal protein S6 kinase alpha-6, N-terminal kinase domain (RPS6KA6, Homo sapiens, UniProt Q9UK32)","cell-free assay, competition with immobilised ligand",76%
"Insulin receptor (INSR, Homo sapiens, UniProt P06213)","cell-free assay, competition with immobilised ligand",94%
"MATK (Homo sapiens, UniProt P42679)","cell-free assay, competition with immobilised ligand",100%
"MUSK (Homo sapiens, UniProt O15146)","cell-free assay, competition with immobilised ligand",100%
"CDK13 (Homo sapiens, UniProt Q14004)","cell-free assay, competition with immobilised ligand",100%
"NEK2 (Homo sapiens, UniProt P51955)","cell-free assay, competition with immobilised ligand",100%
"OXSR1 (Homo sapiens, UniProt O95747)","cell-free assay, competition with immobilised ligand",100%
"KIT (Homo sapiens, UniProt P10721, L576P)","cell-free assay, competition with immobilised ligand",100%
"MAPK1 (Homo sapiens, UniProt P28482)","cell-free assay, competition with immobilised ligand",95%
"IGF1R (Homo sapiens, UniProt P08069)","cell-free assay, competition with immobilised ligand",100%
"ACVR1 (Homo sapiens, UniProt Q04771)","cell-free assay, competition with immobilised ligand",100%
"MTOR (Homo sapiens, UniProt P42345)","cell-free assay, competition with immobilised ligand",100%
"FLT3 (Homo sapiens, UniProt P36888, K663Q)","cell-free assay, competition with immobilised ligand",100%
"ERBB3 (Homo sapiens, UniProt P21860)","cell-free assay, competition with immobilised ligand",100%
"MAPKAPK2 (Homo sapiens, UniProt P49137)","cell-free assay, competition with immobilised ligand",100%
"TSSK3 (Homo sapiens, UniProt Q96PN8)","cell-free assay, competition with immobilised ligand",100%
"FES (Homo sapiens, UniProt P07332)","cell-free assay, competition with immobilised ligand",100%
"FLT3 (Homo sapiens, UniProt P36888, F691L/ITD)","cell-free assay, competition with immobilised ligand",93%
"EIF2AK2 (Homo sapiens, UniProt P19525)","cell-free assay, competition with immobilised ligand",100%

# Set 3 — observed: kinase activity; mode: inhibitor; concentration: 1 µM
# Compound: CC(C)S(=O)(=O)c1ccc2nccc(Nc3ccc4sc(C5CCCC5)nc4c3)c2c1.Cl
target,remaining activity [%]
"CAMKK1 (Homo sapiens, UniProt Q8N5S9)",92
"PRKACB (Homo sapiens, UniProt P22694)",96
"CDC42BPG (Homo sapiens, UniProt Q6DT37)",104
"CAMK2B (Homo sapiens, UniProt Q13554)",94
"PRKD1 (Homo sapiens, UniProt Q15139)",110
"CLK2 (Homo sapiens, UniProt P49760)",103
"PDGFRB (Homo sapiens, UniProt P09619)",89
"FRK (Homo sapiens, UniProt P42685)",73
"CDK1 (Homo sapiens, UniProt P06493)",79
"PLK4 (Homo sapiens, UniProt O00444)",96
"TSSK1B (Homo sapiens, UniProt Q9BXA7)",98
"MAK (Homo sapiens, UniProt P20794)",109
"MAPKAPK5 (Homo sapiens, UniProt Q8IW41)",89

# Set 4 — observed: enzyme activity; mode: inhibitor; concentration: 0.5 µM; baseline: control
# SMILES: NC(=O)c1ccc(-c2nc(-c3ccc4c(c3)OCCO4)c(-c3ccccn3)[nH]2)cc1
target,remaining activity [%]
"EPHB1 (Homo sapiens, UniProt P54762)",91
"PHKG1 (Homo sapiens, UniProt Q16816)",87.2
"MAP4K4 (Homo sapiens, UniProt O95819)",78.6
"PDPK1 (Homo sapiens, UniProt O15530)",94.7
"Cyclin-dependent kinase 6, with cyclin D3 (CDK6, Homo sapiens, UniProt Q00534)",104
"Cyclin-dependent kinase 1, with cyclin B (CDK1, Homo sapiens, UniProt P06493)",83.9
"HIPK4 (Homo sapiens, UniProt Q8NE63)",103
"EPHA4 (Homo sapiens, UniProt P54764)",92.5
"AXL (Homo sapiens, UniProt P30530)",95.1
"RPS6KA6 (Homo sapiens, UniProt Q9UK32)",102
"TSSK2 (Homo sapiens, UniProt Q96PF2)",109
"DYRK3 (Homo sapiens, UniProt O43781)",99.4
"SRMS (Homo sapiens, UniProt Q9H3Y6)",89.2
"CAMK2B (Homo sapiens, UniProt Q13554)",103
"MAPKAPK3 (Homo sapiens, UniProt Q16644)",96.2
"EPHB4 (Homo sapiens, UniProt P54760)",88
"RPS6KA5 (Homo sapiens, UniProt O75582)",97.4
"STK17A (Homo sapiens, UniProt Q9UEE5)",98.2
"Cyclin-dependent kinase 4, with cyclin D3 (CDK4, Homo sapiens, UniProt P11802)",94.1
"STK16 (Homo sapiens, UniProt O75716)",101
"BLK (Homo sapiens, UniProt P51451)",97.6
"HIPK2 (Homo sapiens, UniProt Q9H2X6)",89.8
"WNK3 (Homo sapiens, UniProt Q9BYP7)",101

# For quick reference, copied from above (set 4):
target,remaining activity [%]
"RPS6KA5 (Homo sapiens, UniProt O75582)",97.4
"Cyclin-dependent kinase 4, with cyclin D3 (CDK4, Homo sapiens, UniProt P11802)",94.1
"SRMS (Homo sapiens, UniProt Q9H3Y6)",89.2
"AXL (Homo sapiens, UniProt P30530)",95.1
"CAMK2B (Homo sapiens, UniProt Q13554)",103
"HIPK4 (Homo sapiens, UniProt Q8NE63)",103
"HIPK2 (Homo sapiens, UniProt Q9H2X6)",89.8
"MAP4K4 (Homo sapiens, UniProt O95819)",78.6
"PHKG1 (Homo sapiens, UniProt Q16816)",87.2
"PDPK1 (Homo sapiens, UniProt O15530)",94.7
